Published values from different studies.
Every numbered part comes from another study and shows a few of its results, in no order.

Study 1
Target: Histone acetyltransferase KAT6A, both winged helices, GST fusion (KAT6A, Homo sapiens, UniProt Q92794, residues 1-181)
Method: protein binding microarray
Molecule type: double-stranded DNA, one strand shown
Sample: in vitro
Concentration: not given
Notes: 8-mer, flanks averaged, mean of 2 arrays, mostly near background
Relative to: not given
Direction: higher = stronger binding
Target sequence (chain): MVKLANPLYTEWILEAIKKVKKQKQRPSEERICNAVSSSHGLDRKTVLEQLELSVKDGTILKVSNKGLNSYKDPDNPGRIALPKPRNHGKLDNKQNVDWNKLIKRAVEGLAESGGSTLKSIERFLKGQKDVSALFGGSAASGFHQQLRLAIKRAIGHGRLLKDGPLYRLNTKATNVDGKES
| Oligonucleotide | E-score |
| --- | --- |
| ATGACAGC | -0.0635 |
| ATTATCGG | 0.169 |
| ACTGGGTG | -0.189 |
| GTGGAGAA | -0.115 |
| CCGCTCGA | 0.202 |
| AGAGCGAC | 0.0899 |
| GCTTGACC | 0.0557 |
| CACATGTG | 0.0614 |
| CCAAGCGA | -0.0377 |
| ACCGGAAG | 0.193 |
| GTCGCGTA | 0.248 |
| AAACAACA | -0.151 |
| ACCGTCAG | 0.0222 |
| CTCATGTA | 0.043 |
| ACAAATGC | -0.0772 |
| CGCGTCGC | 0.356 |
| AAACAAAG | -0.11 |

Study 2
Sequence: REASKSRVQLFKDDPM
Effect on: yeast growth
Method: competitive growth deep sequencing
Molecule type: peptide
Notes: peptide tiling library
Direction: direction not given
| tested on | test system | enrichment score |
| --- | --- | --- |
| human cyclin B3-Cln2 fusion | Saccharomyces cerevisiae | -1.51 |
| human cyclin B2-Cln2 fusion | Saccharomyces cerevisiae | 0.0591 |
| human cyclin A2-Cln2 fusion | Saccharomyces cerevisiae | 0.918 |
| human cyclin D2-Cln2 fusion | Saccharomyces cerevisiae | -0.65 |
| Saccharomyces cerevisiae | unfused Cln2 | -0.355 |
| human cyclin D3-Cln2 fusion | Saccharomyces cerevisiae | -1.39 |

Study 3
Target: Interferon regulatory factor 5, full length, phosphomimetic (IRF5, Homo sapiens, UniProt Q13568-2, residues 1-514, S451D/S453D/S456D/S462D)
Method: protein-binding microarray
Molecule type: double-stranded DNA, one strand shown
Sample: in vitro
Concentration: 940 nM top
Notes: 60-bp whole probe
Added: salmon DNA 0.4 mg/ml
Relative to: random background probes
Direction: higher = stronger binding
All sequences stand within: GCCTAGCAC … GTCTTGATTCGCTTGACGCTGCTG
| Oligonucleotide | fitted relative affinity [z-score] |
| --- | --- |
| ATCCATCTCAAGTAGCCTAGCGTGCTA | 0.189 |
| TGGGCTGTGGGTTTGAGTCTGTGCTAG | 0.0706 |
| GACGGTTTCCTTTTCCTTACGTGCTAG | 2.04 |
| TTAGGGCTGGACACTGGGTTAGTGCTA | -0.548 |
| TTAGGTCTCGGTTTCGGTCAGTGCTAG | 10.1 |
| TTAGAACTGGGGCATCGATTAGTGCTA | 0.0939 |
| TTAGGAATCGACACTGGGTTAGTGCTA | 0.318 |
| ATATTTCCCAGAACTGGAGTGGTGCTA | 0.0501 |
| TCACATTTTGGTTTTCCACTGTGCTAG | 1.05 |
| GAAGGTTTCGGTCTCGGGACGTGCTAG | 11.9 |
| TTAGATATCGGGTTTCGAATAGTGCTA | 2.04 |
| TCATGTTTGTCACTCTCACTGTGCTAG | 1.11 |
| GGTACAAACTTGTAATTATAGTGCTAG | -0.525 |
| TCACTTTACTTTCTTTTACTGTGCTAG | 2.98 |
| TTAGGTTTCGACTTTCGGTGAGTGCTA | 8.53 |
| GACGGTATCGGATTGGGGACGTGCTAG | 3.95 |
| TTAGATCTTAGTCTCGATTAGTGCTAG | 3.18 |
| GACGAACTGGGGTTTCGAAACGTGCTA | 2.34 |
| GTAGGTATCGGGTATCGGTTAGTGCTA | 5.89 |
| TTAAGACTGCTACTGCTTTAGTGCTAG | -0.302 |
| GACGGTTACGGGTATCGGGACGTGCTA | 0.88 |
| GGCGGTATCGACTATCGGGACGTGCTA | 5.01 |
| GACGATAACAGACTGGAGACGTGCTAG | -0.46 |
| GTCAGTTTTGAGCTCTGTCTGTGCTAG | 0.267 |
| TTAGGGTTCGACACTGGGTTAGTGCTA | -0.0256 |

Study 4
Target: Phosphate system positive regulatory protein PHO4, full length, GST-tagged (PHO4, Saccharomyces cerevisiae, UniProt P07270, residues 1-312)
Method: competition protein-binding microarray
Molecule type: double-stranded DNA, one strand shown
Sample: in vitro
Concentration: 2 µM
Notes: whole 60-bp probe, lowest competitor level
Added: Cbf1 competitor, 0.05 µM
Direction: higher = stronger binding
All sequences stand within: … GTCTTGATTCGCTTGACGCTGCTG
Residues (chain): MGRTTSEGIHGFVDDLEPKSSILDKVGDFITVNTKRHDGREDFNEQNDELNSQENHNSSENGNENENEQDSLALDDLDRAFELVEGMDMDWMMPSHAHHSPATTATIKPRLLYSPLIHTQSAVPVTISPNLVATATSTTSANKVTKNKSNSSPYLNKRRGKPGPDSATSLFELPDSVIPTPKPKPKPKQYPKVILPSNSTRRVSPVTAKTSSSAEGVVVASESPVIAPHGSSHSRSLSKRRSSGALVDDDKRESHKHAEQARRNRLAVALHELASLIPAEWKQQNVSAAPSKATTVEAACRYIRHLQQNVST
| Oligonucleotide | fluorescence intensity [a.u.] |
| --- | --- |
| TGCTTCTTTTTCCTTCACGTGTGGAGCCAAGTGCGG | 12200 |
| TATCAAAAGTACCAACACGGGGAAAGAGAGCCATCC | 7880 |
| CTTTCCCGATCTTGAGCGGTGGGTGTAGCACATTTG | 4720 |
| TGCGCAACAACTTGGGACGTGGGTGTATGTCTAGAA | 7220 |
| CCTACCGCTTCTCCACACGTTTCTTAGATATGCGCG | 12200 |
| ACTGTAGAAAGAGAAAGTGTGGTAAAACCAACCAAT | 4770 |
| GTCTTGTCTCATTGATCCGTGGGTGTCCCCACTTCA | 5910 |
| CGTCCTAGTGATTTTCACGTGGTTTCCATGAGGAAG | 13600 |
| AAATTACTAAGTTGACCCGTGGGTGACGCCGTATGA | 9170 |
| TCAAAGAGTTGAGCGAACGTGACTCCTGGGCTGGCC | 8500 |
| AGTATCATAGGGTCCCACGTGCAAAGTCCACCGTCT | 20700 |
| GCAGGTATGTTTTTCACCGTGAAGATGGACGCATCT | 3420 |
| TAGGGCTACCTTTGTCATGCCCAGGAAAACCGGATT | 3070 |
| GGATTAATTGCGTATCAGCTGACAGAGGTAACAAAG | 3870 |
| CTGAACTCGCCGCCTCACCTGCCACTACGTCTTCCG | 3960 |
| CCAGCGCATCTACTGAACCTGATCCAAAACTCCAAA | 2580 |
| GCCTTGCAATTTATCACCGTGAGACATCCAGACAGT | 5250 |
| ACACACAAATAGTTACACGTGAGAGAAAGGAAGGTA | 14700 |
| ATTACCATTCTCCGTCACGTGCAAATAAAACCACTC | 15400 |
| CTAACCGGCCACCGTCACATGATTCGATTGTGTAGC | 7360 |
| TTGGTACTTGTTCAACACGTTGCTTACGATCTTGGT | 12100 |
| CTGTGTGCCATTAGCCATGTGATGGGCCTATTAATG | 9670 |
| CGTCCTAGTGATTGCAGGGTGGGTGCCATGAGGAAG | 7450 |
| GCTTCTCAACTACAGCTCGTGTTCCTCTTGCAGCAA | 9780 |
| AAAGCGGTAATTTGTTTAGTGGGTGCAGATATCTAT | 3630 |

Study 5
Target: RING finger protein unkempt homolog, zinc fingers 1-6, GST-SBP tag (UNK, Homo sapiens, UniProt Q9C0B0, residues 30-357)
Method: RNA Bind-n-Seq
Molecule type: RNA
Sample: in vitro
Concentration: not given
Notes: RNA with constant flanks, ends assumed
Relative to: input RNA pool
Direction: higher = stronger binding
All sequences stand within: GGGAGUUCUACAGUCCGACGAUC … CAACAGAGGAUUGAGCAUCA
Target sequence (chain): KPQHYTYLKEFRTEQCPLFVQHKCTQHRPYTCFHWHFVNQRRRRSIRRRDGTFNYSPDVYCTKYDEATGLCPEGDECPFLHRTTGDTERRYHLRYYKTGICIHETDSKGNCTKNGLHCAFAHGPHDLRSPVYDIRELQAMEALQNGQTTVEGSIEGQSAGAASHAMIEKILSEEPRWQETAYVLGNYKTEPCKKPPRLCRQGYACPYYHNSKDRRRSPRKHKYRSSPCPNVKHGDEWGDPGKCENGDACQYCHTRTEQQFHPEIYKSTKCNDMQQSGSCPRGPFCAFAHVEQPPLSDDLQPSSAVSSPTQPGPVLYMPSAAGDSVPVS
| Oligonucleotide | bound/input enrichment [ratio] |
| --- | --- |
| GGCAGCAAAAGGCACAGUAGGUCAAGAAGCAGGUCUCGAUCCCGGACCAGAAGUUCCUCCCGGUCUCGUAGCCGAUCCCGUUCCCGUAGUCGCAAAUCUUACAGCCGGUCAAGAAGCAGG | 0.299 |
| UACUGUGACCUCCAGCAAGAACCCAAUGGUAUCACCGGAAUCCUGAAGUGGGUAAAACUGACCGACAACUUUGAAGGAGAAUACGACUACGUAACCAACGAGGGCACAGUGUUCACAUUC | 0.0616 |
| UAACGUUACAUAUCAUAGUGAAUGGUUUCCCCAGUGUAUAUGAAUGUUUUAAGUGUUUCCAACCGCUUAUGAAAUUUAGGAGCUUUCUAAUACUCGUUUUAUAAAUUUAAUCAUUUGCUA | 1.56 |
| UUAGGGUGCUCUUUGAGAGCAUAGUCUUAUAUCUGGGGACUAAAAUGUCAUUAGACCCUAACCGACCAAGUUAUAUGUUUGUGUAGGAAAAAGGUUUCCUCUCUCGUUCAAGGUAAUUGU | 0.19 |
| UUGCUUUACUGGAAAGAACCAGAAUAUGCCAAAUAUCUAAAGUACCCUCAGUGCUUACAUAUGUCCGAGCUGCUCCAGUAUGAGCACUUUCGCAAGGAGCUGGUGAAUGCGCAGUGUGCG | 0.158 |
| CAGCAGCCACAGCCACUGAUGUCACAACAGUUUGCACAGCCUCCGGGAGCUACCAAUAUGACCGGUUACAUGGGGCAGACUGCCUACCAAUACCCUCCUCCUCCUCCCCCUCCUCCUCCU | 0.309 |
| CAUGCAAUCUUGUAAUGUGGCCUGAAAACAAGCUAACUGUAUUAGAAACUAUUCAAAAACCCGGUAUUUUUAGUGACCUGUAGGCAGUGGCAAAUACAGACAUGUGAACCUUGAAUACAU | 0.637 |
| CAGGAAUGCGGGGAGGCCUUUGCUCGUAGGUCUGAGCUCAUUGAGCACCAGAAGAUUCAUGACCGAGAAAGACCUUCUGGAAGCCGACAUUAUGAGCGCUCUGUCAUCCGCAGCCUUGCG | 0.129 |
| CUCUAGGCUUUUCAGAUGUGGAUCAUACCUAUGCUCAAAGAACUCAGCUCUUUGACACCUCCGUAAAUUUCUUUCCUGACAGCAUGACUCCUCCUAAAGGCAACCUGGUAGACCUGAUCA | 0.593 |
| AAAAGAAAAGCCUCUAAAUAGGGUUUCAUGUGGUGCAGGGUUAUAAACCUGCUUUAUCUUUCCGGAUUAUUCCUAAAUGCAUCUUCUUUAUAAACUUGACUUGCUAUAUCAGCAAGAUAA | 0.204 |
| CCUCGGGAACGGGACUACUUAAAAACAGUCUUACACAGAAUUUAUGGCAAGUUUCUUGGUCUCCGAGCAUUUAUCCGAAAACAGAUUAACAAUAUUUUUCUAAGGUUUGUUUAUGAAACA | 0.458 |

A few entries again (study 1):
| Oligonucleotide | E-score |
| --- | --- |
| ATGACAGC | -0.0635 |
| ATTATCGG | 0.169 |
| ACTGGGTG | -0.189 |
| GTGGAGAA | -0.115 |
| CCGCTCGA | 0.202 |
| AGAGCGAC | 0.0899 |
| GCTTGACC | 0.0557 |
| CACATGTG | 0.0614 |
